Results gathered from unrelated publications.
Several values in a cell are separate wells, animals, samples, runs or records. ± gives the spread as reported.

The Vss observed of `CCc1c(-c2ccccc2)c(-c2ccccc2)nn1-c1ccccc1-c1cccc(OCC(=O)O)c1` is reported as 595 mL/kg and 631 mL/kg and 482 mL/kg (Sprague-Dawley rat; intravenous).
`Cc1ccc([C@@H]2O[C@H](CO)[C@@H](O)[C@H](O)[C@H]2O)cc1Cc1ccc(-c2ccc(F)cc2)s1` — result for “urinary phosphate excretion change”: -102 mg (item: inorganic phosphorus; Japanese type 2 diabetes patients; 200 mg, day 1, 24 h urine collection; reference: baseline).
`C=CC[C@@H]1/C=C(\C)C[C@H](C)C[C@H](OC)[C@H]2O[C@@](O)(C(=O)C(=O)N3CCCC[C@H]3C(=O)O[C@H](/C(C)=C/[C@@H]3CC[C@@H](O)[C@H](OC)C3)[C@H](C)[C@@H](O)CC1=O)[C@H](C)C[C@@H]2OC` — result for “fractional chloride excretion increase”: ~1.5 fold (male Wistar Kyoto rat; intraperitoneal, 0.5 mg/kg/day, day 18; reference: vehicle).
With `COc1nnc2ccc(N3CCC(c4ccc(OCCN5CCN(C)C(=O)[C@H]5C)cc4)CC3)nn12` the terminal half-life was 327 min (human, plasma; oral, 2 mg once daily, single dose, monotherapy).
The retention factor of `CC[C@H](C)[C@H](NC(=O)[C@H](CO)NC(=O)[C@H](CCCNC(=N)N)NC(C)=O)C(=O)N[C@H]1CSSC[C@@H](C(=O)N[C@H](C(N)=O)[C@@H](C)O)NC(=O)[C@H](CCCNC(=N)N)NC(=O)[C@H](Cc2c[nH]cn2)NC(=O)[C@H](Cc2cccc3ccccc23)NC(=O)CNC(=O)[C@H](Cc2c[nH]c3ccccc23)NC(=O)[C@H](CC(=O)O)NC(=O)[C@H](CCC(N)=O)NC(=O)[C@H](Cc2cccc3ccccc23)NC(=O)[C@H](C(C)C)NC1=O` is reported as 7.076 ± 0.005 (isocratic RP-HPLC, C18; 32% acetonitrile, phosphate pH 7.4, 1% TFA; 25 °C).
`Cc1ccc(Sc2ccccc2N2CCNCC2)c(C)c1`: “participants with TEAE” 0% (item: AST increased; healthy adult women; oral, 10 mg daily, 12 days).
Under “serum MCV change”, `CCc1cc(C(=O)NC)c2nccc(N3CCc4c(cc(Cn5ccnc5)cc4-c4cn(C)nc4C(F)(F)F)C3=O)c2c1` is recorded as -1.44% (Sprague Dawley rats; oral, 100 mg/kg twice daily, 7 days; reference: vehicle).
For `CCn1c(=O)c(-c2cc(NC(=O)Nc3ccccc3)c(F)cc2Br)cc2cnc(NC)cc21`, “participants with grade ≥ 3 TEAE” read 25% (item: lipase increased; human, severe hepatic impairment; oral, 50 mg single dose).
With `CNc1ccc(-c2nc3ccc(O)cc3s2)cc1` [carbon-11 labelled] the SUV was 0.532 ± 0.294 (ex vivo biodistribution; B6SJL mouse, normal, blood; intravenous, 30 min).
`CCCCOc1ccc([C@H]2CC[C@H](CCC)CC2)c(F)c1F` gave a median concentration of 5.17 ng/mL (human mother-newborn pairs, maternal serum).
`CC(C)C[C@H](NC(=O)CNC(=O)c1cc(Cl)ccc1Cl)B(O)O` — result for “treatment-emergent adverse events”: 6% (item: Vomiting; human newly diagnosed multiple myeloma; oral, dose not given, maintenance, grade 3, onset cycle 17 or later).
For `COc1ccc(C(O)COc2ccc(-c3csc(-c4ccc(OCC(O)c5ccc(OC)c(OC)c5)cc4)n3)cc2)cc1OC` (centres unmarked), the tlast was 24 h (mouse C57BL/6J, plasma; intravenous, 3 mg/kg).
The unbound AUC0–12 of `CCO[C@H]1CCN(Cc2c(OC)cc(C)c3[nH]ccc23)[C@H](c2ccc(C(=O)O)cc2)C1` is reported as 4180 ng·h/mL (human moderate hepatic impairment, plasma; oral, 200 mg single dose, median).
`CCN1/C(=C/C(C)=O)Sc2ccc(F)cc21` — result for “PR interval change”: 97.3 ± 3.4% (cynomolgus monkey; oral, 30 mg/kg, 6 h post-dose; reference: pre-dose).
With `CNCc1ccc(-c2[nH]c3cc(F)cc4c3c2CCNC4=O)cc1` the neutropenia incidence was 0% (human patients; oral, 600 mg twice daily, grade 4).
For `CC(C)(C)c1ccc(O)c(CN(Cc2cc(C(C)(C)C)ccc2O)C2CCC(NC(N)=O)CC2)c1` (centres unmarked), the recovery was 98.04 ± 0.16% (human liver microsomes; 2000 ng/mL, 24 h, 25 °C, short-term storage).
The recovery of `C=CC(=O)Nc1cc(Nc2nccc(-c3cn(C)c4ccccc34)n2)c(OC)cc1N(C)CCN(C)C` is reported as 97.9% (storage stability; human dried blood spot; 30 d, -80 °C, HQC level).

Excerpt of the above:
With `COc1nnc2ccc(N3CCC(c4ccc(OCCN5CCN(C)C(=O)[C@H]5C)cc4)CC3)nn12` the terminal half-life was 327 min (human, plasma; oral, 2 mg once daily, single dose, monotherapy).
For `COc1ccc(C(O)COc2ccc(-c3csc(-c4ccc(OCC(O)c5ccc(OC)c(OC)c5)cc4)n3)cc2)cc1OC` (centres unmarked), the tlast was 24 h (mouse C57BL/6J, plasma; intravenous, 3 mg/kg).
